Measurements from different studies.
Every numbered part comes from another study and shows a few of its results, in no order.

Sample 1 — method: RNA Bind-n-Seq; form: RNA; matrix: in vitro; concentration: 200 nM; notes: whole 134-nt RNA, ends assumed; with: 150 mM LiCl; reference: input library; direction: higher = stronger binding; all molecules: 7-deaza-guanosine replaces G
Target: Ras GTPase-activating protein-binding protein 1, full length (G3BP1, Homo sapiens, UniProt Q13283)
UniProt Q13283, sequence (whole entry, looked up): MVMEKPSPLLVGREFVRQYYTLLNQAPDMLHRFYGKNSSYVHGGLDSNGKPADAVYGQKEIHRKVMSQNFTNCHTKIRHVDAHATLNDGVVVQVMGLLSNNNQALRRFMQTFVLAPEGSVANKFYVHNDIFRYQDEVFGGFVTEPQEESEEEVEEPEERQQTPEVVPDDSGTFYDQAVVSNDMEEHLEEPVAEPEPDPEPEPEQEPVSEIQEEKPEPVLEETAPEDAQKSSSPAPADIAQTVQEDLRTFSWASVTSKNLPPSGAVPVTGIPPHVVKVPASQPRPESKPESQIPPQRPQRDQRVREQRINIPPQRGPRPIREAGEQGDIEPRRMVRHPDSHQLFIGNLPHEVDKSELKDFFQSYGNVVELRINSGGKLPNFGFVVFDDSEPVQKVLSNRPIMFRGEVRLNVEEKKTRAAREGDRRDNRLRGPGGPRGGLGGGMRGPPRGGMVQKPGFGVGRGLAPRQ
All sequences stand within: GGGAGUUCUACAGUCCGACGAUC … UGGAAUUCUCGGGUGUCAAGG
For `UUCUCUCAUUUCUUCUGAAAUACAGGGCAAAUUGGAUCAAGGCAGUUCAGAUGUGUAGCAAACCCAGAGAAUUUGCAUUGGCUUUAGCCA`, the log2 enrichment was -1.72.
For `AAGUCCUGUGCUACACAUCGUAUGUACCGAAUCGGAAAAGGGGAAAAGGAAAAGGGAAAGUAUUAUGUUACGCCGUUCGGAUCUGCACUU`, the log2 enrichment was -0.228.
`UCCUGUGCUACACAUCGUAUGUACCGAAUCGGGGAGGGGUUUUUGGGGAAAAAAAGGGGAAAGUAUUAUGUUACGCCGUUCGGAUCUGCA` gave a log2 enrichment of 0.366.
The log2 enrichment of `GGAUUGGUAGCUUAUGUCGAUCUUGAUGAAAGAGCAAUUGAUGCUCUCAGGGAAUUUAAUGAAGAAGGAGCUCUGUCUGUACUACAGCAG` is reported as 0.11.
With `CACAGACAACACGCACCCACACAGACACAGAGGGAAGGGGCUGGGAUGGGGACAGGGUGCACAGCAGGGCGGGGUAGGACCCCAGCCCCU` the log2 enrichment was 0.145.
With `UCCUGUGCUACACAUCGUAUGUACCGAAUCGGGCCCCCCGGCCCCCCGGGGCCCCCCGGGAAAGUAUUAUGUUACGCCGUUCGGAUCUGC` the log2 enrichment was 0.131.
For `CCUGUGCUACACAUCGUAUGUACCGAAUCGGGCCCCCCGGGCCCCCCGGGGCCCCCCGGGAAAGUAUUAUGUUACGCCGUUCGGAUCUGC`, the log2 enrichment was -1.45.
`UCUUGUAUGACUUAACCCCUGUUUCUAAUACAGGGGCCGCUCUCCUCAGCCUCCUGCUGAAGAGGAUGAAGAUGACUUUGAUGAUACCCU` has a log2 enrichment of -0.28.

Sample 2 — target: UBE2S UBC core domain (UniProt Q16763); method: yeast two-hybrid; matrix: yeast; notes: mostly zero background; reference: not given; direction: higher = stronger interaction
B1: RNF135 RING domain (UniProt Q8IUD6); chain PVWLAEDDLGCIICQGLLDWPATLPCGHSFCRHCLEALWGARDARRWACPTCRQGAAQQPHLR
B2: ZNRF3 RING domain (UniProt Q9ULT6); chain DTLSSSSTSDCAICLEKYIDGEELRVIPCTHRFHRKCVDPWLLQHHTCPHCRHNIIEQKGNP
B3: PRKN RING domain (UniProt O60260); chain LIATNSRNITCITCTDVRSPVLVFQCNSRHVICLDCFHLYCVTRLNDRQFVHDPQLGYSLPCVAGCPNSLIKELHH
Target sequence (chain): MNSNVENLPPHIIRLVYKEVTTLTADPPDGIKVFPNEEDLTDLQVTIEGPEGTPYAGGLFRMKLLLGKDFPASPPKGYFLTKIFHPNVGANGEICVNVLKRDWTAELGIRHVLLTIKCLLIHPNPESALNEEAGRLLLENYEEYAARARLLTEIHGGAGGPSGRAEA
`B1 (RNF135 RING domain)` — result for “lacZ reporter activity”: 0.
`QLRRLQEERTCKVCLDRAVSIVFVPCGHLVCAECAPGLQLCPICRAPVRSRVRTF (BIRC7 RING domain (UniProt Q96CA5))` — result for “lacZ reporter activity”: 0.
`MDDQGCPRCKTTKYRNPSLKLMVNVCGHTLCESCVDLLFVRGAGNCPECGTPLRKSNFRV (MNAT1 RING domain (UniProt P51948))`: “lacZ reporter activity” 0.
For `KITELNPHLMCVLCGGYFIDATTIIECLHSFCKTCIVRYLETSKYCPICDVQVHKTRPLL (BMI1 RING domain (UniProt P35226))`, “lacZ reporter activity” read 0.
`NTAPSLTVPECAICLQTCVHPVSLPCKHVFCYLCVKGASWLGKRCALCRQEIPEDFLDK (RNF146 RING domain (UniProt Q9NTX7))`: “lacZ reporter activity” 0.
`B2 (ZNRF3 RING domain)` — result for “lacZ reporter activity”: 0.
Under “lacZ reporter activity”, `KLWDINAHITCRLCSGYLIDATTVTECLHTFCRSCLVKYLEENNTCPTCRIVIHQSHPLQ (PCGF3 RING domain (UniProt Q3KNV8))` is recorded as 0.
`B3 (PRKN RING domain)` — result for “lacZ reporter activity”: 0.

Sample 3 — method: RNAcompete; form: RNA; matrix: in vitro; concentration: 20 nM; notes: 7-mer, probes averaged, single round; reference: mean of 7-mers; direction: higher = stronger binding
Target: PABPC1L2, full length, GST fusion (mouse, UniProt A0ABA7IW68)
Construct (chain): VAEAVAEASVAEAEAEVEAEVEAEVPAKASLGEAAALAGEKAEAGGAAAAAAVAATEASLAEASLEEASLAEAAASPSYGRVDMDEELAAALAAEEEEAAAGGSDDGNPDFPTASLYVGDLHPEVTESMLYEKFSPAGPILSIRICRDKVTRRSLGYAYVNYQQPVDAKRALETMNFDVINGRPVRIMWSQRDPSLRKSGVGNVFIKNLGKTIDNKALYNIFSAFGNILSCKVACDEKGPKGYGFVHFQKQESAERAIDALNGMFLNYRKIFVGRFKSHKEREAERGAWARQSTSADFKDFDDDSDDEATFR
`UGGCGCA` has a 7-mer Z-score of -0.103.
With `UUUAACA` the 7-mer Z-score was -0.13.
The 7-mer Z-score of `CCUAGCC` is reported as -0.291.
For `GGUUUUG`, the 7-mer Z-score was -0.318.
The 7-mer Z-score of `GAUGUCA` is reported as -0.17.
`UUGAGGC` has a 7-mer Z-score of 0.0388.
The 7-mer Z-score of `GCAGGCU` is reported as 0.0823.
The 7-mer Z-score of `CUACCAG` is reported as -0.266.

Further values, each from its own experiment
Under “log2 fold change”, `CN1CC[C@H](c2c(O)cc(O)c3c(=O)cc(-c4ccccc4Cl)oc23)[C@H](O)C1` is recorded as 0.667 (HuT78; RNA-seq, refers to: AKAP5; concentration not given; reference: untreated control).

A few entries again (further values, each from its own experiment):
Under “log2 fold change”, `CN1CC[C@H](c2c(O)cc(O)c3c(=O)cc(-c4ccccc4Cl)oc23)[C@H](O)C1` is recorded as 0.667 (HuT78; RNA-seq, refers to: AKAP5; concentration not given; reference: untreated control).
